# Results of several laboratories.
# A part holds a random share of what one study measured.

# Block 1
# Target: Centromere-binding protein 1, full length, N-terminal tag (CBF1, Saccharomyces cerevisiae, UniProt P17106, residues 1-351)
# UniProt P17106, sequence (whole entry, looked up): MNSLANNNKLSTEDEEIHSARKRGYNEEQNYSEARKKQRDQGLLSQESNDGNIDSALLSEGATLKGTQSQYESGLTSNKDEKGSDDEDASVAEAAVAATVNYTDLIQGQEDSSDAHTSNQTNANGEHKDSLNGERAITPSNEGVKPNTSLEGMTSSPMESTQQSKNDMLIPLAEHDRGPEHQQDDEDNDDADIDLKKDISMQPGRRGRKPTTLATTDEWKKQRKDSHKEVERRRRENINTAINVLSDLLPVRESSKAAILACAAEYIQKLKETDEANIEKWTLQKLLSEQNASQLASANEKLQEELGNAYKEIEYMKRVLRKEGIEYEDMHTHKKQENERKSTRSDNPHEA
# Technique: protein-binding microarray
# Form: double-stranded DNA, one strand shown
# Matrix: in vitro
# Concentration: 0.8 µM
# Notes: whole 60-bp probe, no competitor
# Reading: higher = stronger binding
Strand,fluorescence intensity [a.u.]
GAAACTTTTACACCTCTGCTGATATTTTAAATATAGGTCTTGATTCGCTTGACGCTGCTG,530
GAACACAGAATGAATTTCATCACGTGCGTATTATAGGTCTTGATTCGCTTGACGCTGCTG,11500
CTAGGCATAAGAAGGCACGTCCCCTGAAAGTAGTTCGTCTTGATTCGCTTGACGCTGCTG,507
TGTACGAAGCTATGGAACGTGACTATAGTAGTTAGGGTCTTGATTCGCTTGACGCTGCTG,2150
GAACAAGGTTAGTATCACGTCAATTCTTTCAAATAGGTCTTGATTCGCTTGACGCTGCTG,531
TGTACGAAGCTATTGCACGACAGTATAGTAGTTAGGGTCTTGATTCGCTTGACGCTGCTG,544
GAAAATTTTAAGCATCACCCGGCATTAGCGTTTTAGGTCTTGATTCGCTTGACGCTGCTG,513
CTAGTGACCACAATTCACCCCACAGGTGTGGCTTTCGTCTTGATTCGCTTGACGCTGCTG,501

# Block 2
# Target: Hepatocyte nuclear factor 3-alpha (Foxa1, Mus musculus, UniProt P35582, residues 1-468, full length assumed)
# UniProt P35582, sequence (whole entry, looked up): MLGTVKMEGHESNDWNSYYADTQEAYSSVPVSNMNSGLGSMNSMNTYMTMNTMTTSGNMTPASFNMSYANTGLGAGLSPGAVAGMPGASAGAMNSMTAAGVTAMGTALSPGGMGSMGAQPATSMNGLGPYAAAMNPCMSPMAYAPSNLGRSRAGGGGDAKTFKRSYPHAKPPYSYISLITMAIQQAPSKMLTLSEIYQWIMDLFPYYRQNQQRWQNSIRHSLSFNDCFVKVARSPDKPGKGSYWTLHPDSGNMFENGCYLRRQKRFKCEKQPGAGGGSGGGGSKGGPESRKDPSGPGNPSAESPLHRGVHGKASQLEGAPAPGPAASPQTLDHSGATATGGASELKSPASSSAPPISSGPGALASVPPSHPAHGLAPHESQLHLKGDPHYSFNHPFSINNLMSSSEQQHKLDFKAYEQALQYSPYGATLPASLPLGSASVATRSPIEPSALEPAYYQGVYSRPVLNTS
# Technique: EMSA with sequencing
# Form: double-stranded DNA, one strand shown
# Matrix: in vitro
# Concentration: 10 and 20 nM
# Notes: whole designed probe, mean of two concentrations, ends assumed
# Baseline: negative control set to 0
# Reading: higher = stronger binding
Strand,normalised bound fraction
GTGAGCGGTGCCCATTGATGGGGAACTTTTAACTAGTATGTTTTAAACTTTGGTATTGTATTTCCCACTAAGAGCCCTTCTTTTTTCAAAATAATATTTATTCTACCAGATGAACTATGTAATCTTAAAGCAATATGGACAAGCATTTATTCTTTTGTTTTTAATTAACTTGCCCACATGATTTCAAATTTCATTAGAATTTATATTATAGTATTTCAATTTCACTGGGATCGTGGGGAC,0.126 ratio
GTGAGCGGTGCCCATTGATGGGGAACATCTTCCCCCTCTTCCTTGCCCCACCAGCTCACCTTCCCGGGTTATTTGCAGATAGGAAAATAAATAAAGCCGGCATTCGTTAACGCAGTTCTGGCGCAAACTGCTGTTTGCTCTGCATGAATCATGGTCCTTACGCGAGGCGTGGCTCCGGGAGAGCAAAGCACCGTGTCAGGCGCATGATCCGGGGTGGCCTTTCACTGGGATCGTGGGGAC,0.359 ratio
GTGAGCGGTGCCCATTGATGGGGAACAAAAGATTTGGTATCGTTTAAAAAAAAAAAAAAGCTGGGTGGGGCCGAGGAGAATCCACCCAAACTTTCCTCAGGAAGTAGGATGTTTACTGAGTAAATATGCGGTAGTCACAGAAACACCTGCTACTCCTTTAAGACCTCAGGAGCCACCACCGCCACCTCCTGGCCACATCCGGGCACTTCTCTGCAAACTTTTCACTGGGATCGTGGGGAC,0.329 ratio
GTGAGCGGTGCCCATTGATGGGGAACTGATGAGAAACATGATAATTATTTAGTCTGAAAGGATCTTCTCCAATAATTTTTTTTTGTCGTGATACATTCTCCACCCCCTCCTGACTAAATGCAAACAAACCTAAATTGAGGGAAATTCTATGCAATACCTAACCATTATTCATCAAATGTACACAGGAGTACAGTGACACAATCATGGTTCACTGTAACCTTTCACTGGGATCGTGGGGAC,0.346 ratio
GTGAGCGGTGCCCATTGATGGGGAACATCTTCCCCCTCTTCCTTGCCCCACCAGCTCACCTACGGGGGTTATTTGCAGATAGGAAAATAAATAAAGCCGGCATTCGTTAACGCAGTTCTGGCGCAAACTGCTGTTTGCTCTGGATCTAACATGGTCCTTTGGCGAGGCGTGGCTCCGGGAGAGCAAAGCACCGTGTCAGGGCCATGATCCGGGCTCGCCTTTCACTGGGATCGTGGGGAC,0.342 ratio
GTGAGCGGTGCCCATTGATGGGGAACAGTCCAAAAGACACAATAGGCACTGAGCAGAGGATGATGGCAATGGTAGAATGAATCATGAGGTTCATAACCAGGAGACTTAAAGCAAAAAAAATAATCTACCAAACAGCAATGGGTGAAGAGTTCCCTGCAAAGGCTAATCTATAAATAAGCACTGTGATCTTTCCTGGTCTGATAACAAATCTCATTATGATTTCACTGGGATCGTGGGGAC,-0.00484 ratio
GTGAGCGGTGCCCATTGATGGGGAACTAACTCCCAAAAAACACACAGAAAGCCATTACAAAGCATAAAACAGACCAAGGAAAAATTAATAGCACTTGAACTTCCCACCAGATCCCAAAGTAATCTTGAAGCCCATAGTGTCACAGTCAACACTTCAAAAAACTCCTTCAGGTGGGCCCCAAGATCTCCATACATGGGAAAACCATGTCAGAAAGATGAATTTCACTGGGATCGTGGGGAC,-0.018 ratio
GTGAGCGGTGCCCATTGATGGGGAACTTTCTGCTGGAAAATTCTATCTGTCAATAGAGTTCTTAAAAGGATTTGTATTAAGCCTTCCACAGATACTCTGATATTAAAATCAGGTCTGAGTAATCTGGTACATTCTGTGTAGTTAAAATTAAATACTGCTATAAATATGCCCAGTGGGGTAATCCAATTTACTAGTCACTTCAGAGCTGATATGAAGGTCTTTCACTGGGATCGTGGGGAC,0.0632 ratio

# Single results of other studies
Compound,target or system,test,system,setting,how to read,endpoint,result
CC(C)n1cnc(-c2ccc(F)cc2)c1-c1ncc(C(=O)Nc2ccc(N3CCN(C)CC3)cc2)[nH]1,,phase 2a trial,idiopathic pulmonary fibrosis patients,"30 mg once daily, maximum grade 1",,patients with benign prostatic hyperplasia,1%
COc1ccc(CNC(=O)Nc2ncc([N+](=O)[O-])s2)cc1,mouse MPNST tumor cells,"high-content immunofluorescence imaging, refers to: nuclear SOX9",,"10 µM, 12 h, mean of 2 replicates","baseline: DMSO control, higher = more nuclear SOX9",nuclear SOX9 intensity,105 % of DMSO
